Assay results gathered from unrelated publications.
Protocols differ between the studies behind these lines. Several values in a cell are separate wells, animals, samples, runs or records.
Target: Dual specificity tyrosine-phosphorylation-regulated kinase 1B (DYRK1B, Homo sapiens, UniProt Q9Y463)

SMILES	read-out	action	technique	concentration	relative to	measurement	value
CC(=O)N1c2ccc(-c3ccc(CNC(=O)c4cn5cc(-c6cnc(N)nc6)nc(N6CCOCC6)c5n4)cc3)cc2CC[C@@H]1C	–	–	KINOMEscan	10 µM	–	remaining binding	98%
CN1CCN(Cc2ccc(NC(=O)c3cccc(C#Cc4cnc(N)c5ncccc45)c3)cc2C(F)(F)F)CC1	cell-free assay	–	competition with immobilised ligand	0.5 µM	–	remaining binding	78%
CNC1C[S+]2CC[S+]3CC[S+](C1)[Ru-4]321([N]=C=S)[n]2c3ccc(OC)cc3c3c4c(c5cc(F)c[n+]1c5c32)C(=O)NC4=O (stereo not drawn)	–	–	KinomeScan	0.1 µM	untreated	remaining binding	41%
CCN1CCN(Cc2ccc(C(=O)Nc3ccc(C)c(NCc4cnc5[nH]ccc5c4OC)c3)cc2C(F)(F)F)CC1	binding	–	competition with immobilised ligand	1 µM	–	remaining binding	82%
CNC(=O)C1CCN(c2cc(C)c(F)cc2NC(=O)c2ccc(-c3cc(O)ccc3C)c(C)c2)CC1	binding	–	competition with immobilised ligand	1 µM	–	remaining binding	52%
COc1ccc(O)cc1-c1c[nH]c2ncc(-c3cncc(C(=O)N(C)C)c3)cc12	binding	–	competition with immobilised ligand	0.2 µM	–	inhibition	5.91%
C=CC(=O)N1CCCC(n2c(=O)c3ncccc3n(Cc3ccc(Oc4ccccc4)cc3)c2=O)C1 (stereo not drawn)	cell-free assay	–	competition with immobilised ligand	1 µM	–	remaining binding	77%
C=C1CCCCCCCCCC(CO)C1=O (stereo not drawn)	cell-free assay	–	–	10 µM	–	remaining signal	100%
C=CC(=O)Nc1cccc(-c2cnc3[nH]cc(C(=O)NC(C)(C)C)c3n2)c1	kinase activity	–	–	0.1 µM	–	inhibition	5% and 4%
CNS(=O)(=O)Nc1nccc(Cc2c(C)c3ccc(Oc4ncccc4F)cc3oc2=O)c1F	cell-free assay	–	competition with immobilised ligand	10 µM	–	remaining binding	61%
O=C(Nc1cc(-c2ccnc3[nH]ccc23)c(Cl)cn1)[C@H]1CCC[C@@H](NC(=O)C(F)(F)F)C1	binding	–	competition with immobilised ligand	0.1 µM	–	remaining binding	17%
COc1cc(Nc2nccc(-c3cnn4nc(OC)ccc34)n2)cc(C(F)(F)F)c1	binding	–	competition with immobilised ligand	1 µM	–	remaining binding	76%
Cc1ccc(-c2c[nH]nc2C(=O)Nc2cccnc2)c(C)c1	cell-free assay	–	competition with immobilised ligand	10 µM	–	remaining binding	5.5%
NC(=O)[C@@H](O)C[C@H]1CCc2sc3ncnc(O[C@H]4CC[C@H](N5CCOCC5)CC4)c3c21	enzyme activity	inhibitor	–	10 µM	–	inhibition	79%
COc1c(Cl)cccc1Nc1c(-c2ccncc2C#C[C@@]2(C)CCCN2C(=O)/C=C/CN(C)C)[nH]c2c1C(=O)NCC2	cell-free assay	–	competition with immobilised ligand	3 µM	–	remaining binding	77%
Cc1cccc(O[C@H]2CCC[C@@H](C(C)CNCc3ccncc3)C2)c1 (relative stereo)	cell-free assay	–	–	1 µM	–	inhibition	4%
C=CC(=O)N1CCc2ccc(-n3c(=O)ccc4cnc5ccc(-c6cnn(C)c6)cc5c43)cc21	–	–	KINOMEscan	1 µM	DMSO control	remaining binding	68%
CNC(=O)C[C@H](Cc1ccc(C#N)cc1)NC(=O)c1cc(-c2ccc(CN[C@H](C)c3ccc(C)cc3)o2)ccc1Cl	enzyme activity	inhibitor	–	1 µM	–	activity vs control	109%

For quick reference, copied from above:
SMILES	read-out	action	technique	concentration	relative to	measurement	value
CC(=O)N1c2ccc(-c3ccc(CNC(=O)c4cn5cc(-c6cnc(N)nc6)nc(N6CCOCC6)c5n4)cc3)cc2CC[C@@H]1C	–	–	KINOMEscan	10 µM	–	remaining binding	98%
CN1CCN(Cc2ccc(NC(=O)c3cccc(C#Cc4cnc(N)c5ncccc45)c3)cc2C(F)(F)F)CC1	cell-free assay	–	competition with immobilised ligand	0.5 µM	–	remaining binding	78%
CNC1C[S+]2CC[S+]3CC[S+](C1)[Ru-4]321([N]=C=S)[n]2c3ccc(OC)cc3c3c4c(c5cc(F)c[n+]1c5c32)C(=O)NC4=O (stereo not drawn)	–	–	KinomeScan	0.1 µM	untreated	remaining binding	41%
